# Results from different studies.
# Compare with care: the assays were run in different laboratories. Several values in a cell are separate wells, animals, samples, runs or records. ± marks the error that the study gave.
# USP5: Ubiquitin carboxyl-terminal hydrolase 5 (USP5, Homo sapiens, UniProt P45974)
# Coelenterazine h 2-monooxygenase: Coelenterazine h 2-monooxygenase (Renilla reniformis, UniProt P27652)
# Protein-S-isoprenylcysteine O-methyltransferase: Protein-S-isoprenylcysteine O-methyltransferase (Homo sapiens, UniProt O60725)
# PTGS2: Prostaglandin G/H synthase 2 (PTGS2, Homo sapiens, UniProt P35354)
Structure (SMILES),tested on,test,system,conditions,endpoint,value
O=C(O)C(=CC(=O)c1ccccc1)Nc1ccccc1,USP5,"enzyme activity, inhibitor",,17 µM,inhibition,18%
CN(Cc1ccc(/C=C/C(=O)NO)cc1)CC12CC3CC(CC(C3)C1)C2,human Y2 receptor,agonist radioligand binding,,0.05 µM,inhibition,-13%
O=C(CSc1nnc2c(n1)CCCC2)c1ccc(N2CCCC2=O)cc1,USP5,"enzyme activity, inhibitor",,17 µM,inhibition,85%
O=C1c2sc(-c3ccc(N4CCC(CO)CC4)nc3F)nc2CCN1c1cccnc1,"Androgen receptor (AR, Homo sapiens, UniProt P10275)","ligand displacement, radioligand",,1 µM,inhibition,9%
O=C(NCCOc1ccc(F)cc1)c1ccc([C@H]2[C@@H](F)[C@@H](F)C[C@@H](F)[C@H]2F)cc1,,hepatocyte stability,cryopreserved rat hepatocytes,1 µM,hepatic clearance,34 mL/min/kg
N#Cc1ccc(-c2cnc(C(=O)CCCCCCc3ccccc3)o2)nc1,recombinant FAAH (rat),enzyme activity,,"80 nM, 3 h, 22 °C, before dialysis",inhibition,~80%
COc1ccccc1Nc1nc(NCC2CCCO2)c2ccccc2n1 (stereo not drawn),Coelenterazine h 2-monooxygenase,"luciferase activity, inhibitor, luminescence counter-screen",,"concentration not given, test 1",inhibition,78% and 84.5%
CC(C)Cn1c(SCC(=O)N2CCc3ccccc3C2)nc2cc(Cl)ccc2c1=O,"Histamine H1 receptor (HRH1, Homo sapiens, UniProt P35367)","ligand displacement, radioligand",,10 µM,inhibition,-2%
CCCCCCCCN(CCC(=O)Nc1ccccc1)C(=O)c1ccc(C(F)(F)F)cc1,Protein-S-isoprenylcysteine O-methyltransferase,enzyme activity,Sf9 membranes,"50 µM, together with: [3H]S-adenosylmethionine, biotin-farnesyl-L-cysteine",inhibition,18%
Oc1nc2ncc(Br)cc2[nH]1,USP5,"enzyme activity, inhibitor",,17 µM,inhibition,90%
CO[C@@H]1OC[C@@H](O)[C@H](O)[C@H]1O,PTGS2,"enzyme activity, inhibitor",,15.63 µg/mL,inhibition,81.4%
"CC(=O)C12NC(C)(C)CC1(C)C(=O)C1=C2c2c(c3c4n2C(C)(C)CC2=C4C4(CC(C)(C)NC(C)(C4)C2=O)CC3(C)C)C(=O)C(C)(C)N1 (single isomer, unassigned; (-))","Potassium voltage-gated channel subfamily KQT member 2 (KCNQ2, Homo sapiens, UniProt O43526)","potassium current, whole-cell patch clamp",HEK293T,40 µM,inhibition,1 ± 0.04%
CS(=O)(=O)c1ccc(-n2cc(C=NN=c3[nH]c(-c4ccc([N+](=O)[O-])cc4)cs3)c(-c3ccc([N+](=O)[O-])cc3)n2)cc1,PTGS2,enzyme activity,,1 µM,inhibition,37.6%
CCn1cc(C(=O)O)c(=O)c2c(N)c(F)c(NC3CCCCC3)cc21,"Serine/threonine-protein kinase PINK1, mitochondrial (PINK1, Homo sapiens, UniProt Q9BXM7)",kinase activity,,"0.1 µM, together with: ATP at Km",inhibition,-8.8%
Cc1cc(N)n(N)c(=O)c1,USP5,"enzyme activity, inhibitor",,17 µM,inhibition,26%
CC(C)Cc1ccc(-c2nn(-c3ccc(S(C)(=O)=O)cc3)cc2C=NN=c2[nH]c(-c3ccc(Br)cc3)cs2)cc1,PTGS2,enzyme activity,,10 µM,inhibition,82.7%
CC=C(C)C(=O)OC1CC2C(C=C(C)C3C(OC(C)=O)CC(=O)C13C)OC(=O)C2C (stereo not drawn),PTGS2,"enzyme activity, inhibitor",,0.24 µg/mL,inhibition,0%
O=C(CCC(F)(F)F)Nc1ccc(C2CCCCC2)cc1,,hepatocyte stability,cryopreserved mouse hepatocytes,1 µM,hepatic clearance,76 mL/min/kg
CCC(=O)/C=C\c1nnc2cc3c(cc2c1-c1ccc(CC)o1)OCCO3,USP5,"enzyme activity, inhibitor",,17 µM,inhibition,74%
COc1cccc(-c2cc(F)c(NC(=O)Nc3sc(C)nc3C(=O)O)c(F)c2)c1,"Dihydroorotate dehydrogenase (quinone), mitochondrial (DHODH, Homo sapiens, UniProt Q02127)","enzyme activity, DCIP colorimetric",,20.00 µM,inhibition,29.1% and 29.4% and 29.2%
C[Si]1(C[C@H](CN)CC(=O)O)CCCC1,"alpha2 adrenergic receptor, rat","binding, radioligand binding",,"70 µM, together with: [3H]rauwolscine",inhibition,4%
COc1ccc(-c2ccc(CNCCc3ccc(S(N)(=O)=O)cc3)o2)cc1Cl,"D(3) dopamine receptor (DRD3, Homo sapiens, UniProt P35462)","enzyme activity, inhibitor",,10 µM,inhibition,23.2%
CCCCCCCCN(CCC(=O)Nc1ccccc1)C(=O)c1ccoc1,Protein-S-isoprenylcysteine O-methyltransferase,enzyme activity,Sf9 membranes,"50 µM, together with: [3H]S-adenosylmethionine, biotin-farnesyl-L-cysteine",inhibition,81%
NC(=O)C[C@H]1CCc2sc3ncnc(O[C@H]4CC[C@H](N5CCOCC5)CC4)c3c21,"cAMP-dependent protein kinase catalytic subunit gamma (PRKACG, Homo sapiens, UniProt P22612)","enzyme activity, inhibitor",,10 µM,inhibition,1%
O=C1c2sc(-c3ccc(N4CCC(F)C4)nc3F)nc2CCN1c1cccnc1 (stereo not drawn),TNF-alpha (human),"radioligand binding, BioPrint binding panel",,"1 µM, together with: agonist radioligand",inhibition,-1%
CS(=O)(=O)c1ccc(-n2cc(C=NN=c3[nH]c(-c4ccc(Br)cc4)cs3)c(-c3ccc([N+](=O)[O-])cc3)n2)cc1 (mixture of isomers),PTGS2,enzyme activity,,0.01 µM,inhibition,6.39%
CS(=O)(=O)Nc1cccc(-c2csc3cnc(Nc4ccc(N5CCN(CCCCCOc6cccc7c6C(=O)N(C6CCC(=O)NC6=O)C7=O)CC5)cc4)nc23)c1 (stereo not drawn),"STE20-related kinase adapter protein beta (Homo sapiens, UniProt Q9C0K7)","probe labelling, inhibitor, KiNativ chemoproteomics",MOLT-4,1 µM,inhibition,7.18%
C/C=C/C(=O)Nc1ccc2nc(NCCCCCN(C)C)nc(NCCCCCCN(C)C)c2c1,"Protein arginine N-methyltransferase 3 (PRMT3, Homo sapiens, UniProt O60678)","enzyme activity, inhibitor, radiometric",,50 µM,inhibition,86%
C/C=C(/C)C(=O)O[C@@H]1C=C(C)CC[C@]2(O)[C@@H](C(C)C)CC(=O)[C@]12C,PTGS2,"enzyme activity, inhibitor",,15.63 µg/mL,inhibition,0%
O=c1c(=NO)c(=NO)c(=O)c2ccccc12,USP5,"enzyme activity, inhibitor",,17 µM,inhibition,72%
CN(C)C/C=C/C(=O)Nc1ccc2nc(NCCCCCN(C)C)nc(NCCCCCCN(C)C)c2c1,"DNA (cytosine-5)-methyltransferase 3A, with DNMT3L (DNMT3A, Homo sapiens, UniProt Q9Y6K1)",enzyme activity,,50 µM,inhibition,6%
CC1CCC(C(C)C)C(OC(=O)Cn2c(-c3ccc(Br)cc3)[n+](C)c3ccccc32)C1.[Cl-] (stereo not drawn),Coelenterazine h 2-monooxygenase,"luciferase activity, inhibitor, luminescence counter-screen",,"concentration not given, test 1",inhibition,80.5% and 87.6%
Cc1ccc(-c2nn(-c3ccc(S(C)(=O)=O)cc3)cc2C=NN=c2[nH]c(-c3ccc([N+](=O)[O-])cc3)cs2)cc1,PTGS2,enzyme activity,,0.1 µM,inhibition,22.8%
CCCCCCCCN(CCC(=O)Nc1ccccc1)C(=O)c1ccc(F)cc1,Protein-S-isoprenylcysteine O-methyltransferase,enzyme activity,Sf9 membranes,"50 µM, together with: [3H]S-adenosylmethionine, biotin-farnesyl-L-cysteine",inhibition,42%
NNC(Cc1ccccc1)c1nnnn1Cc1ccccc1 (stereo not drawn),"Endothiapepsin (EAPA, Cryphonectria parasitica, UniProt P11838)","enzyme activity, inhibitor",,200 µM,inhibition,39.9%
Clc1cccc2c(NCCCN3CCOCC3)cnnc12,USP5,"enzyme activity, inhibitor",,17 µM,inhibition,20%
Cc1ccc2c(c1)sc(-c1ccc(N(C)C)cc1)[n+]2C,Coelenterazine h 2-monooxygenase,"luciferase activity, inhibitor, luminescence counter-screen",,"concentration not given, test 2",inhibition,90% and 103%
CC(NN)c1nn(-c2ccccc2)c(=O)c2c(N)scc12 (stereo not drawn),USP5,"enzyme activity, inhibitor",,17 µM,inhibition,69%
C[Si](C)(C)C[C@@H](CN)CC(=O)O,"Gastrin/cholecystokinin type B receptor (CCKBR, Homo sapiens, UniProt P32239)","cell-free assay, inhibitor",,75 µM,inhibition,-2%

# Some of these lines once more:
Structure (SMILES),tested on,test,system,conditions,endpoint,value
NC(=O)C[C@H]1CCc2sc3ncnc(O[C@H]4CC[C@H](N5CCOCC5)CC4)c3c21,"cAMP-dependent protein kinase catalytic subunit gamma (PRKACG, Homo sapiens, UniProt P22612)","enzyme activity, inhibitor",,10 µM,inhibition,1%
O=C(NCCOc1ccc(F)cc1)c1ccc([C@H]2[C@@H](F)[C@@H](F)C[C@@H](F)[C@H]2F)cc1,,hepatocyte stability,cryopreserved rat hepatocytes,1 µM,hepatic clearance,34 mL/min/kg
CCCCCCCCN(CCC(=O)Nc1ccccc1)C(=O)c1ccc(F)cc1,Protein-S-isoprenylcysteine O-methyltransferase,enzyme activity,Sf9 membranes,"50 µM, together with: [3H]S-adenosylmethionine, biotin-farnesyl-L-cysteine",inhibition,42%
Cc1cc(N)n(N)c(=O)c1,USP5,"enzyme activity, inhibitor",,17 µM,inhibition,26%
COc1ccccc1Nc1nc(NCC2CCCO2)c2ccccc2n1 (stereo not drawn),Coelenterazine h 2-monooxygenase,"luciferase activity, inhibitor, luminescence counter-screen",,"concentration not given, test 1",inhibition,78% and 84.5%
CS(=O)(=O)c1ccc(-n2cc(C=NN=c3[nH]c(-c4ccc([N+](=O)[O-])cc4)cs3)c(-c3ccc([N+](=O)[O-])cc3)n2)cc1,PTGS2,enzyme activity,,1 µM,inhibition,37.6%
